Measured values pooled from the literature.
Numbered parts are unrelated; each lists some results of a single study.

Block 1 — method: RNAcompete; molecule type: RNA; matrix: in vitro; concentration: 20 nM; setting: 7-mer, probes averaged, single round; baseline: mean of 7-mers; direction: higher = stronger binding
Target: PABPC1L2, full length, GST fusion (mouse, UniProt A0ABA7IW68)
Target sequence (chain): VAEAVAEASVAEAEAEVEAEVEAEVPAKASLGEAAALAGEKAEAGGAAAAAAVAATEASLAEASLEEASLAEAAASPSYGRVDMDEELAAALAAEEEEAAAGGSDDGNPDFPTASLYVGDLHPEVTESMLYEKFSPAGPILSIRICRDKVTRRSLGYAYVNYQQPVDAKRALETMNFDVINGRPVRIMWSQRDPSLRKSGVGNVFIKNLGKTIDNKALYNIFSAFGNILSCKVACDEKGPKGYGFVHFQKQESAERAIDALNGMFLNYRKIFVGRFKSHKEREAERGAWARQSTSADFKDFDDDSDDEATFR
Sequence	7-mer Z-score
UACAUGG	-0.00652
UAAAAUU	3.23
CGUUUAG	-0.358
GGGCGAU	0.35
AGUUAGU	-0.2
GACUAUA	-0.0754
AAUUUUG	0.0315
UUACAAA	1.36

Block 2 — method: EMSA with sequencing; molecule type: double-stranded DNA, one strand shown; matrix: in vitro; concentration: 10 and 20 nM; baseline: negative control set to 0; direction: higher = stronger binding
Target: Hepatocyte nuclear factor 3-alpha (Foxa1, Mus musculus, UniProt P35582, residues 1-468, full length assumed)
Setting: whole designed probe, mean of two concentrations, ends assumed
All sequences stand within: GTGAGCGGTGCCCATTGATGGGGAAC … TTTCACTGGGATCGTGGGGAC
Target sequence (chain): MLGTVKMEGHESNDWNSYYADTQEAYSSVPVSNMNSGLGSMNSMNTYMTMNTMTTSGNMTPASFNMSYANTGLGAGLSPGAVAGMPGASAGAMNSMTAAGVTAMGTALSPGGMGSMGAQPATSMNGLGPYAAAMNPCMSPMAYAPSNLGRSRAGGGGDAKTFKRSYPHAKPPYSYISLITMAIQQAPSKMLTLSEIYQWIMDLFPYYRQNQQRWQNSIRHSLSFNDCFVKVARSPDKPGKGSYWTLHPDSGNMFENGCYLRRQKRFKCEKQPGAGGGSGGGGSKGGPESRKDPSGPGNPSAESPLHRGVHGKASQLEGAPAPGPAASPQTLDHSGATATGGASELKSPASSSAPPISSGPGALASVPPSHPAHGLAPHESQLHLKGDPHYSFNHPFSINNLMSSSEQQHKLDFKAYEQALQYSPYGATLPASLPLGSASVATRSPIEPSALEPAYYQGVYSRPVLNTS
Sequence	normalised bound fraction [ratio]
TTTCCAGCCCTTAGTTTCTGGCATTTAACCTGACTCTGGTCCCTGAATGGCATGGGAGTGCTCTGACTCATTCGTTTCCACATTCATGCCACTTGTTTGCTTTTCTGTCACATTCTGATCTACAGAGATCTTTATTTGCTTTGTGTTTCCAATGGAGAAAGAGCTTGGGAAGGGAGGATCCTAATTGTCTAAA	0.482
CTAGCTCCAGTCTTAGCATGGCAATTTCTTCCCGCAACGTACTATTTTCATGCAAGACGTCTTTTTCTTTCTTACAACTAAGAGAAAGCTAAGTAATCTAAGAGAACTTTTAGTTAGCACTCAATAGATTGACATATCATGATTTCTTCTGAAATTCAAAAATAACATGTATTTGTATAATGAAAGAATCCCC	0.106
TTTCAGTGTTCACATTTCCCGTTAAGAAAAAAAAACTAATTTTTTACATGCATCATCATTAATTAGTGTAGTTTAATTAGTGTTTAGCTAAAAAGTAATCTGGGACCTAAATTAAGTTTGTTAGACAGTGCTAGAATTTACTGGGCTCCAGTAAATTTCACCTGGGTTTCAGGCAGGAAGAAAGTAAGGATGT	-0.041
ATCTTCCCCCTCTTCCTTGCCCCACCAGCTCACCTTCCCGGGTTATTTGCAGATAGGAAAATAAATAAAGCCGGCATTCGTTAACGCAGTTCACGCGCATACTGCTGTTTGCTCTGGATCTAACATGGTCCTTTGGCGACGCCAGGCTCCGGGAGAGCAAAGCACCGTGTCAGGGCCATGATCCGGGGTGGCC	0.357
ATTATAAGTCCCCATTTTCATTATATTCTAAGGAGCTTGAAGATATACTTTTGATTCTTTTTAAACTGTGCATTCGAGAATTAATCTCTTCTTGTTTACTTTTATGTTCAGTCTTTCAATGTTATTTTCTAATTTTTGTGTATCATTTTATTTATCAACACATAAATATATACATTCACATAAGTATACGAGT	0.45
ATCTTCCCCCTCTTCCTTGCCCCACCAGCTCACCTTCCCGGGTTATTTGCAGATAGGAAAATAAATAAAGCCGGCATTTGCACTCCATCTTCTGGCGCAAACTGCTGTTTGCTCTGGATGAATCATGGTCCTTTGGCGACGCCAGGCTCCGGGAGAGCAAAGCACCGTGTCAGGGCCATGATCCGGGGTGGCC	0.324
TTTTCTGCCGGCAGTGCTTCTAGCAGTTGGGAGAATAAACCCCTCATTCCTGAGGGGAGCCTTGGTGGCCCCTCGCAGTGTTTACCATGTTAAGTAAACATGGTAGGGTTGCTGAAGATTAGAGACGCCACAAAGAGGAGTGGGTTTGGGGAAGGCGATGAGCTCCATTTTGCACATAGTGAGTGTGAGGTGT	0.492
TACAGGAAATTTATCAGCTCTAGATGATTCTGTTAGCTCGTGATCAATGTTGAGCCTAAAAAGAACGTGGCCGAATCAGTGGTTTGTAACCCAAGATTATTCTAATCAGTCAGTCCGGGGCTATAATGGTAGTTGGATGTTTTTAATACTATCTTTGGCAAATTCCCATATATTCACATACAGCATAGTTACA	-0.0653

Block 3 — method: RNA Bind-n-Seq; molecule type: RNA; matrix: in vitro; concentration: 200 nM; setting: whole 134-nt RNA, ends assumed; with: 150 mM KCl; baseline: input library; direction: higher = stronger binding
Target: Fragile X messenger ribonucleoprotein 1, C-terminal low-complexity region (Fmr1, Mus musculus, UniProt P35922)
All sequences stand within: GGGAGUUCUACAGUCCGACGAUC … UGGAAUUCUCGGGUGUCAAGG
Sequence	log2 enrichment
UCAAGUCCUGUGCUACACAUCGUAUGUACCGAAUCGGGGAAGGGGAAGGGAAGGGAAAGUAUUAUGUUACGCCGUUCGGAUCUGCACUUC	0.747
CCUCAAGUCCUGUGCUACACAUCGUAUGUACCGAAUCGGUUUGGAAAGGAGGAAAGUAUUAUGUUACGCCGUUCGGAUCUGCACUUCCAG	0.233
UCAAGUCCUGUGCUACACAUCGUAUGUACCGAAUCGGGGAAGGGAAGGGAAGGGAAAGUAUUAUGUUACGCCGUUCGGAUCUGCACUUCC	0.889
CCUCAAGUCCUGUGCUACACAUCGUAUGUACCGAAUCGGCCGGGCCGGCCGGAAAGUAUUAUGUUACGCCGUUCGGAUCUGCACUUCCAG	-0.288
UCAAGUCCUGUGCUACACAUCGUAUGUACCGAAUCGGGAAGGGGAAGGGAAGGGAAAGUAUUAUGUUACGCCGUUCGGAUCUGCACUUCC	0.866
UAACUUUAGCGGAGGAUCUGAUGGAUAUGGCAGUGGACGUGGAUUUGGGGAUGGCUAUAAUGGGUAUGGAGGAGGACCUGGAGGUGGCAA	0.333
UCCUGUGCUACACAUCGUAUGUACCGAAUCAAACCCAAAUUUUUUUAAACCCCCCCAAAAAAGUAUUAUGUUACGCCGUUCGGAUCUGCA	0.354
GUCCUGUGCUACACAUCGUAUGUACCGAAUCGGGAAAAAGGGGAAAAAGGGAAAAAGGAAAGUAUUAUGUUACGCCGUUCGGAUCUGCAC	-0.28

Single results of other studies
Sequence	target	observed	molecule type	concentration	endpoint	result
LLLLISLVY	HLA class I histocompatibility antigen, A alpha chain, allele A*26:03 (Homo sapiens, UniProt P04439)	peptide-MHC binding	peptide	concentration not given	binding	inactive

Repeated from above (block 1):
Sequence	7-mer Z-score
UACAUGG	-0.00652
UAAAAUU	3.23
CGUUUAG	-0.358
GGGCGAU	0.35
